Experimental data of several laboratories.
Compare with care: the assays were run in different laboratories. Several values in a cell are separate wells, animals, samples, runs or records. ± marks the error that the study gave.

SMILES | target or system | assay | test system | conditions | how to read | endpoint | result
O=C(O)CNC(=O)Cc1ccccc1 |  |  | ventricular cardiomyocytes, C57BL/6 mouse | dose not given, 0.076 s |  | sarcomere length | 1.72 µm
CN(C)C(=O)c1cc2cnc(Nc3ccc(N4CCNCC4)cn3)nc2n1C1CCCC1 |  | RNA-seq GSEA, measured: HALLMARK_PANCREAS_BETA_CELLS gene set | MB002 tumour | concentration not given | relative to: vehicle, direction not given | enrichment score | -0.439
CC(C)Oc1c(NC(=O)c2ccc(NC(=O)[C@H](CC(N)=O)NC(=O)c3ccc(NC(=O)c4ccc(C#N)cc4)cc3)cc2)ccc(C(=O)Nc2ccc(C(=O)O)cc2)c1O | Escherichia coli ATCC 25922 |  | neutropenic male CD-1 mice, lung | iv then sc, 37.5 mg/kg/day, 24 h after infection, thigh infection model |  | concentration | 11.9 ± 4.7 ng/mL
O=S1(=O)C=Cc2ccccc21 |  | CoA-CPM signal reduction, CPM fluorescence thiol | cell-free biochemical | assay interference counter-screen, together with: CoA replacing acetyl-CoA |  | IC50 | > 125 µM
CNCc1ccc(-c2[nH]c3cc(F)cc4c3c2CCNC4=O)cc1 |  | measured: Vomiting | human patients | oral, dose not given, all grades, all doses |  | patients with adverse event | 42.9%
C[C@H](Oc1ccc(Br)cc1-c1ccon1)C(=O)O |  | muscle velocity recovery cycle | human, tibialis anterior muscle | 400 mg once daily, first response peak at 15 Hz, multiple ascending dose |  | difference from placebo | 6.61%
c1csc(CNc2cc[nH]n2)c1 | human peripheral blood lymphocytes (female) |  |  | 2000 µg/mL, 4 h, repeat, together with: without S9 |  | cells with structural aberrations | 5%
CC(C)C[C@H](NC(=O)C[C@H](O)[C@H](CC(C)C)NC(=O)[C@H](Cc1c[nH]cn1)NC(=O)CNC(=O)[C@@H](NC(=O)[C@H](C)NC(=O)[C@H](Cc1c[nH]c2ccccc12)NC(=O)[C@H](CCC(N)=O)NC(=O)[C@@H](Cc1ccccc1)NC(=O)COCCOCCNC(=O)CCC(C(=O)O)N1CCN(CC(=O)O)CCN(CC(=O)O)CC1)C(C)C)C(N)=O (stereo partly drawn) [lutetium-177 labelled] |  |  | female BALB/c nu/nu mice, stomach | intravenous, 50 pmol, 24 h |  | tissue uptake | 0.06 ± 0.03 %ID/g
OC(CCN1CCCCC1)(c1ccccc1)C1CC2C=CC1C2 (stereo not drawn) |  | resting-state EEG | healthy elderly humans | oral, 4 mg, eyes open, LS mean | relative to: baseline | EEG beta power, O2 Pz, change in | -0.6%
Cc1n[nH]c2ccc(-c3cc(OC[C@@H](N)Cc4ccccc4)cnc3-c3ccoc3)cc12 |  | kinase binding, competitor, MIB/MS competition, measured: CMK1 | Candida albicans cell lysate | 100 nM | relative to: DMSO | log2 fold change | 0.142
CC(C)NCC(O)c1ccc(O)c(O)c1 (stereo not drawn) |  |  | ventricular cardiomyocytes, C57BL/6 mouse | dose not given, 0.024 s |  | sarcomere length | 1.72 µm
CN[C@@H]1COc2c(S(=O)(=O)NC(=O)Nc3c4c(cc5c3CCC5)CCC4)cnn2C1 |  | measured: IL-18 | human participants, whole blood ex vivo | 1800 mg single dose, 1 h, IL-18, circulating, adjusted for, together with: LPS/ATP | relative to: baseline | inhibition | 98.2%
CC(C)C[C@H](NC(=O)C[C@H](O)[C@H](CC(C)C)NC(=O)[C@H](Cc1c[nH]cn1)NC(=O)CNC(=O)[C@@H](NC(=O)[C@H](C)NC(=O)[C@H](Cc1c[nH]c2ccccc12)NC(=O)[C@H](CCC(N)=O)NC(=O)[C@@H](Cc1ccccc1)NC(=O)COCCOCCNC(=O)CCC(C(=O)O)N1CCN(CC(=O)O)CCN(CC(=O)O)CCN(CC(=O)O)CC1)C(C)C)C(N)=O (stereo partly drawn) [lutetium-177 labelled] |  |  | BALB/c nu/nu mice, female, PC-3 xenograft tumour | intravenous, 100 pmol, 2 h, together with: PA 300 µg |  | tissue uptake | 11.9 ± 6.14 %ID/g
Cn1cc(-c2ccc(-c3cncc(Cl)c3N3CCC4(CCNC4=O)CC3)cc2)cn1 | COLO 205 | gene expression, microarray, measured: CCRL2 mRNA |  | concentration not given, 2 h | relative to: untreated cells | log2 fold change | 2
CC[C@H](C)/C=C/C(=O)N1C[C@@H](C)C[C@H]1C(=O)N[C@@H](CCC1CCCCC1)C(=O)N[C@H](C(=O)NC(C)(C)C(=O)N[C@@H](CC(C)C)C(=O)N[C@@H](CC(C)C)C(=O)NC(C)(C)C(=O)NC(C)(C)C(=O)NCCC(=O)N[C@@H](C)CN(C)C)[C@H](O)C(C)C |  |  | small unilamellar vesicles | concentration not given |  | calcein leakage | 32.4%
C[C@@H](NC(=O)N1C(=O)[C@H](Cc2ccnc(N)c2)[C@H]1C(=O)O)C1CCCCC1 |  |  | human | iv infusion, 2.25 mg/kg/h, 24 h |  | aPTT AUEC | 7210 h·s
Cn1cc(Nc2nccc(-c3ccc4c(c3)CN(C3COC3)CC[C@H]4NC(=O)c3cn(C(C)(C)C)nn3)n2)cn1 |  | measured: TNFR1 signalling | mouse splenic B cells, mouse | 30 mg/kg, IgD-activated B cells in vivo | relative to: vehicle, direction not given | pathway activation z-score | 1.39
C[C@H]1O[C@@H](O[C@H]2CC[C@@]3(C)[C@@H](CC[C@]4(C)[C@@H]3C=C[C@]35OC[C@@]6(CCC(C)(C)C[C@H]63)[C@@H](O)C[C@]54C)[C@]2(C)CO)[C@H](O)[C@@H](O[C@@H]2O[C@H](CO)[C@@H](O)[C@H](O)[C@H]2O)[C@H]1O |  | Western blot, measured: Mtor | chronic-plus-binge ethanol-fed mice, liver | dose not given, low dose, unit not given | relative to: β-actin | protein level | 1.36 and 0.709 and 0.876
CC(C)[C@H](NC(=O)[C@H](Cc1ccc(O)cc1)NC(=O)[C@H](Cc1ccc(O)cc1)NC(=O)[C@@H]1CCCN1C(=O)[C@H](CCC(=O)O)NC(=O)[C@H](CCC(=O)O)NC(=O)[C@H](Cc1c[nH]c2ccccc12)NC(=O)[C@@H]1CCCN1C(=O)[C@@H](NC(=O)[C@H](CCC(N)=O)NC(=O)c1ccc2c(c1)C(=O)OC21c2ccc(O)cc2Oc2cc(O)ccc21)C(C)C)C(=O)N[C@H](C(=O)N[C@@H](CCCCN)C(=O)N[C@@H](CCCCN)C(=O)N[C@@H](CO)C(=O)N[C@@H](CO)C(=O)NCC(=O)NCC(N)=O)C(C)C |  |  | human, plasma | intravenous infusion, 40 mg, predose 0 min, day 1 |  | total plasma concentration | not detected
CCCCC1(CCCC)CN(c2ccccc2)c2cc(SC)c(OCC(=O)N[C@@H](C(=O)NCC(=O)O)c3ccccc3)cc2S(=O)(=O)C1 |  | measured: 7α-hydroxy-4-cholesten-3-one | human, plasma | 2.5 mg once daily, day 8 |  | plasma C4 | 39.7 ng/mL
NC(=O)c1cnc2[nH]ccc2c1N[C@@H]1[C@@H]2CC3C[C@H]1C[C@@](O)(C3)C2 |  | flow cytometry | Japanese healthy men, blood | oral, 30 mg twice daily, 72 h after day 7 dose | relative to: baseline | CD8+CD28+ naive T-cell change | -1.07%
